Measured values of several laboratories.
Numbered parts are unrelated; each lists some results of a single study. Values joined by “and” are separate records of one study, mostly repeats; a detail may differ.
Chain of UniProt Q13153 (whole entry, looked up): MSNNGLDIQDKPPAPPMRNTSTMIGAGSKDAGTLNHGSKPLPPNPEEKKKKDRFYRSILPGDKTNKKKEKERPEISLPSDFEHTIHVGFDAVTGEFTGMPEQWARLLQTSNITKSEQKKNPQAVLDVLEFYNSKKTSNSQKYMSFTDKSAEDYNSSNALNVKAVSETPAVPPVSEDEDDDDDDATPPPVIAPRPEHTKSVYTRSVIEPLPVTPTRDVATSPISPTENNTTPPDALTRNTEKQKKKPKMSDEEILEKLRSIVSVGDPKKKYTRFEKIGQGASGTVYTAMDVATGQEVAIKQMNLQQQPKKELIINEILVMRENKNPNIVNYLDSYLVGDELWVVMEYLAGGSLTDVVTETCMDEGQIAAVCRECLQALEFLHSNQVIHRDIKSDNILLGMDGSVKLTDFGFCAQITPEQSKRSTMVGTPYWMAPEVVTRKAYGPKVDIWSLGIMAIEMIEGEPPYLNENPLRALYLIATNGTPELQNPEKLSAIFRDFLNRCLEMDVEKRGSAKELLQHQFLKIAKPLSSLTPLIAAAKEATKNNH
Chain of UniProt Q04759 (whole entry, looked up): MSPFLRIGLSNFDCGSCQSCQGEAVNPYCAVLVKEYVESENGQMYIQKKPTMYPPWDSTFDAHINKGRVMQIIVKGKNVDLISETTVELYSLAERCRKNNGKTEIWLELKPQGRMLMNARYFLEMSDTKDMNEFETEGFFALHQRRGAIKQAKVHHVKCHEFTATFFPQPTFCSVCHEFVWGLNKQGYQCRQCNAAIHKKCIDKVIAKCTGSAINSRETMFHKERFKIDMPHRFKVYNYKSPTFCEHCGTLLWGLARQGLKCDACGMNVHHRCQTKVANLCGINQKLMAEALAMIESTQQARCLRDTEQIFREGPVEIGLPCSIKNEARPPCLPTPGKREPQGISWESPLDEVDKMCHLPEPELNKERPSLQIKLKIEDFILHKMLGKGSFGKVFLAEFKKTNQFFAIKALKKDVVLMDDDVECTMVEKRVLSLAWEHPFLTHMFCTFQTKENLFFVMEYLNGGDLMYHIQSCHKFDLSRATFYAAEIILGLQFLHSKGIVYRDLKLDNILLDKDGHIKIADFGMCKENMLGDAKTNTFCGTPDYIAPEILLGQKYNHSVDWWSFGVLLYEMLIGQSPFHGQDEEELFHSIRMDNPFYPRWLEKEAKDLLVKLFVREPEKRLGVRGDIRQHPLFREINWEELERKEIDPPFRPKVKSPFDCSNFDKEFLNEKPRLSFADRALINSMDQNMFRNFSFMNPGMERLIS
Chain of UniProt P08069 (whole entry, looked up): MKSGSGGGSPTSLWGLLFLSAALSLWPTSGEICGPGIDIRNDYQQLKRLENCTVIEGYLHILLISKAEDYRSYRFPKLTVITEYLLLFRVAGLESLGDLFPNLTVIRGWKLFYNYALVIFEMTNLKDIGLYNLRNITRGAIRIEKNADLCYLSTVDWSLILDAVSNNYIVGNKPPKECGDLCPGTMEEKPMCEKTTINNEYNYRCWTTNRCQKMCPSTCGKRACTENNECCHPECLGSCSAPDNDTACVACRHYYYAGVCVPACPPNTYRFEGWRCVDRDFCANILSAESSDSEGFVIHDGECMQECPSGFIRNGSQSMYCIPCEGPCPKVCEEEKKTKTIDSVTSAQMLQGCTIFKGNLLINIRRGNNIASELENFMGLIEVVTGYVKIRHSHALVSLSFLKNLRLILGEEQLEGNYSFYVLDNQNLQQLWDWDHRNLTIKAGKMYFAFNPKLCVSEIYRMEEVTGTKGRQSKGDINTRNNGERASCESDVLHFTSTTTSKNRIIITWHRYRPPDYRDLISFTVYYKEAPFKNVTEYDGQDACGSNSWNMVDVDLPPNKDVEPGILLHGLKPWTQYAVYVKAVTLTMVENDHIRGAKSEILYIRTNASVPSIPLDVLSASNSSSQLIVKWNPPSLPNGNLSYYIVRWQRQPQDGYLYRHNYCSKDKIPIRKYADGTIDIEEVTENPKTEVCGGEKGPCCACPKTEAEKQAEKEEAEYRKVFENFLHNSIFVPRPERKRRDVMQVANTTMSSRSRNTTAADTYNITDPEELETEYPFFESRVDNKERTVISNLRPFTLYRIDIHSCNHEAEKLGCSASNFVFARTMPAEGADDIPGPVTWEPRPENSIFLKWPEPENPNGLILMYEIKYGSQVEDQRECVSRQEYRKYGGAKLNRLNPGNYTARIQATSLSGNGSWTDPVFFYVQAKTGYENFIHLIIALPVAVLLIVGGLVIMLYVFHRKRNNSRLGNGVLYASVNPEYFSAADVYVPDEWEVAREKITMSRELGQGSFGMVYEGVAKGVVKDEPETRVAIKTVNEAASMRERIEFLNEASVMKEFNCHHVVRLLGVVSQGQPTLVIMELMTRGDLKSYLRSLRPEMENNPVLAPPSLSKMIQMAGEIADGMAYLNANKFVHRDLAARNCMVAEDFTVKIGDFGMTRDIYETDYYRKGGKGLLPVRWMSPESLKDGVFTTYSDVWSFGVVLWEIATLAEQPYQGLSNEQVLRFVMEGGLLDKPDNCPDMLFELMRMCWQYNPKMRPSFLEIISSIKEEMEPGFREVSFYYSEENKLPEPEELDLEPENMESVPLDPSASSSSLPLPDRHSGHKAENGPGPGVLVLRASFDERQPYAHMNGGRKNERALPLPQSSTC
Chain of UniProt P49674 (whole entry, looked up): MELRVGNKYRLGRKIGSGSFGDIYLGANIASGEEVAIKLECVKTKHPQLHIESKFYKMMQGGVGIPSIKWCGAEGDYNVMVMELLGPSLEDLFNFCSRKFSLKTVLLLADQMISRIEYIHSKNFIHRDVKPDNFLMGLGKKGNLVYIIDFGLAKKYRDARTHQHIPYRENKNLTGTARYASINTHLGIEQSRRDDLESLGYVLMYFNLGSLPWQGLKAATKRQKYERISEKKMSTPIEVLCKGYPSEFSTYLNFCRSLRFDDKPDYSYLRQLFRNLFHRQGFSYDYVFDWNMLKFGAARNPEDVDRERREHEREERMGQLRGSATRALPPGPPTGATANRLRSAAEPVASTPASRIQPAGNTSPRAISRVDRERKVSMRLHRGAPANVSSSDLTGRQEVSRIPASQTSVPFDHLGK
Chain of UniProt Q9H0K1 (whole entry, looked up): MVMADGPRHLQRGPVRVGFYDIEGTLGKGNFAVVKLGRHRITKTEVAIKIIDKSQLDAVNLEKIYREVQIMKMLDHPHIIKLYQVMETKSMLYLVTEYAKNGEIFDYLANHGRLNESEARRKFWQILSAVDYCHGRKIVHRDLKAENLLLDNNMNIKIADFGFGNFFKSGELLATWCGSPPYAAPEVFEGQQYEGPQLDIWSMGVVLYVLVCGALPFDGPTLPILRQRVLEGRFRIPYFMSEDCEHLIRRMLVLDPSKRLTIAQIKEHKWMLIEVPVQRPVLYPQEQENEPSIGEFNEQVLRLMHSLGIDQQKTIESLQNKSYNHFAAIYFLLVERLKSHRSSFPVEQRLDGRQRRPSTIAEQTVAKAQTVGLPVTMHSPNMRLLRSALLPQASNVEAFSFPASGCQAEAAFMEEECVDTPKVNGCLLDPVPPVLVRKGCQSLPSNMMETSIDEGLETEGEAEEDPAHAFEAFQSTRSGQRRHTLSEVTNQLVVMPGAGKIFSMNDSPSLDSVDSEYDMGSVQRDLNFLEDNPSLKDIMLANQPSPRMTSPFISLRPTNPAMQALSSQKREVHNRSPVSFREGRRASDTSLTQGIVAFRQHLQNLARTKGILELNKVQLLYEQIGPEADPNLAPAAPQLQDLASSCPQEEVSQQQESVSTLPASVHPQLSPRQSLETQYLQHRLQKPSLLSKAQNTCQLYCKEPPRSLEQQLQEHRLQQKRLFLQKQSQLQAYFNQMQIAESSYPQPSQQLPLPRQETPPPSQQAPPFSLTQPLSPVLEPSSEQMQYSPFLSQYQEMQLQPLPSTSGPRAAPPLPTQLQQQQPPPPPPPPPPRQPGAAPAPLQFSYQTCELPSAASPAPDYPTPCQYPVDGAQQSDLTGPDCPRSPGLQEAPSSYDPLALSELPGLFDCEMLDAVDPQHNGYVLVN
Chain of UniProt Q14012 (whole entry, looked up): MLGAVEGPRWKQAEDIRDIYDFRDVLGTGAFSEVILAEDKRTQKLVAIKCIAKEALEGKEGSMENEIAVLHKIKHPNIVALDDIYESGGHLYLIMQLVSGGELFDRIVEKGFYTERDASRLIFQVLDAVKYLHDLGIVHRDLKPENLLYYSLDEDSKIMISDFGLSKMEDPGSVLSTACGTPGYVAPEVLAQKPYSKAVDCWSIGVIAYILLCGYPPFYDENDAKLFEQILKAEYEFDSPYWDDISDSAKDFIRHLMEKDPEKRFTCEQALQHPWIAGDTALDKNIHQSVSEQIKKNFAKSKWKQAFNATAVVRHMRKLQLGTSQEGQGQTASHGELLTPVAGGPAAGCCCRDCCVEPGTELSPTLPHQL
Chain of UniProt Q8N5S9 (whole entry, looked up): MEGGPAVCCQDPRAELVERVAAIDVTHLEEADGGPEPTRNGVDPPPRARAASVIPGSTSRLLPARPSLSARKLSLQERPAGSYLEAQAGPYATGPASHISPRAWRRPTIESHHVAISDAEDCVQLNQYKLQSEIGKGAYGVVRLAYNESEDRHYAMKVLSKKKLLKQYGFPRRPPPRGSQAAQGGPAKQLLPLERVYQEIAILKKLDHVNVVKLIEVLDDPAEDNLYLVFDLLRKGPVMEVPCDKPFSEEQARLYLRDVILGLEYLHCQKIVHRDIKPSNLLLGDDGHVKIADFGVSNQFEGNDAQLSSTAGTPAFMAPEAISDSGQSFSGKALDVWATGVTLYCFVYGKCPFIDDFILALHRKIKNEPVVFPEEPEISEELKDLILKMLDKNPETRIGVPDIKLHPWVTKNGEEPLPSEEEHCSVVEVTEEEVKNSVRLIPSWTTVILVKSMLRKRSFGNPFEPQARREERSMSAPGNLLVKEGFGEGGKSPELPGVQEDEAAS

Sample 1 — read-out: target engagement in cells; method: BRET; endpoint: IC50
Target: GTPase KRas (KRAS, Homo sapiens, UniProt P01116, Q61L)
CN1CCC[C@H]1COc1nc2c(c(N3CCN(S(C)(=O)=O)[C@@H](CC#N)C3)n1)CCN(c1cccc3cccc(Cl)c13)C2: 690 nM
CC(=O)N1CCN(c2nc(OC[C@@H]3CCCN3C)nc3c2CCN(c2cccc4cccc(Cl)c24)C3)C[C@@H]1CC#N: 1200 nM
CCC(=O)N1CCN(c2nc(OC[C@@H]3CCCN3C)nc3c2CCN(c2cccc4cccc(Cl)c24)C3)C[C@@H]1CC#N: 1700 nM

Sample 2 — Compound: O=C1Cc2c([nH]c3ccc(Br)cc23)-c2ccccc2N1; read-out: enzyme activity; action: inhibitor; concentration: 0.5 µM; baseline: control; endpoint: remaining activity
TYRO3 (Homo sapiens, UniProt Q06418): 97.7%
SRPK1 (Homo sapiens, UniProt Q96SB4): 99.6%
PRKCZ (Homo sapiens, UniProt Q05513): 98.3%
SGK2 (Homo sapiens, UniProt Q9HBY8): 98.9%
PRKCQ (Homo sapiens, UniProt Q04759): 114%
EPHA6 (Homo sapiens, UniProt Q9UF33): 93.7%
EPHA2 (Homo sapiens, UniProt P29317): 98.3%
CSNK1D (Homo sapiens, UniProt P48730): 104%
IGF1R (Homo sapiens, UniProt P08069): 103%
FLT1 (Homo sapiens, UniProt P17948): 78.9%
PAK1 (Homo sapiens, UniProt Q13153): 85%
SIK2 (Homo sapiens, UniProt Q9H0K1): 63.5%
MUSK (Homo sapiens, UniProt O15146): 87.6%
TEC (Homo sapiens, UniProt P42680): 96.4%
CSNK1E (Homo sapiens, UniProt P49674): 103%
JAK1 (Homo sapiens, UniProt P23458): 102%
PAK6 (Homo sapiens, UniProt Q9NQU5): 97.8%
MAP3K20 (Homo sapiens, UniProt Q9NYL2): 88.5%
CAMKK1 (Homo sapiens, UniProt Q8N5S9): 99.8%
CLK2 (Homo sapiens, UniProt P49760): 95.7%
CLK1 (Homo sapiens, UniProt P49759): 96.7%
CAMK1 (Homo sapiens, UniProt Q14012): 106%

Sample 3 — cell line: mouse MPNST tumor cells; method: high-content nuclear imaging; measured: cell number; concentration: 10 µM; time: 12 h; setting: mean of 2 replicates; baseline: plate mean; reading: higher = more cells; endpoint: nuclei count
CC(C)NCC(O)c1ccc(O)c(O)c1 (single isomer, unassigned; (-)): 0.655 z-score
COc1cc2nc(N(C)CCCNC(=O)C3CCCO3)nc(N)c2cc1OC (stereo not shown): 4.34 z-score
CC(C(=O)O)c1ccc(C(=O)c2ccccc2)s1 (stereo not shown): 0.849 z-score
CC(=O)OCC(=O)[C@@]1(O)CC[C@H]2[C@@H]3CCC4=CC(=O)CC[C@]4(C)[C@@]3(F)[C@@H](O)C[C@@]21C: 3.8 z-score
O=C(Nc1ccc(N2CCC(C(=O)N3CCOCC3)CC2)cc1)c1cnc(Oc2ccccc2)nc1: -0.204 z-score
COc1ccc(-n2c(SCc3nc(-c4ccc(C)cc4)no3)nnc2-c2ccncc2)cc1: 1.46 z-score
Cc1c(F)cc(C(=O)NC2CC2)cc1-c1c(F)cn2c(C(C)(C)C)nnc2c1F: -0.219 z-score
CNC(=O)c1cc2c(cn1)[nH]c1ccccc12: 1.54 z-score

Sample 4 — method: von Frey test; endpoint: paw withdrawal threshold
SMILES: COc1cc(C(=O)OCCCN2CCCN(CCCOC(=O)c3cc(OC)c(OC)c(OC)c3)CC2)cc(OC)c1OC
mouse, CFA inflammatory pain; intraplantar, 10 µg, 1 h post-dose, day 3 after CFA: 0.51 g and 0.65 g and 0.32 g and 0.75 g and 0.44 g
mechanical pain; mouse, STZ diabetic neuropathy; intravenous, 30 mg/kg, 24 h post-dose, first injection, day 8: 0.32 g and 0.1 g and 0.04 g and 0.12 g and 0.02 g
mouse, CFA inflammatory pain; subcutaneous, 10 mg/kg, 24 h post-dose, second injection, day 3: 0.29 g and 0.19 g and 0.23 g
mouse, CFA inflammatory pain; subcutaneous, 10 mg/kg, 3 h post-dose, second injection, day 3: 0.23 g and 0.36 g and 0.13 g and 0.32 g
mechanical pain; mouse, STZ diabetic neuropathy; intravenous, 30 mg/kg, 3 h post-dose, first injection, day 8: 0.4 g and 0.17 g and 0.29 g and 0.13 g and 0.06 g
mouse, CFA inflammatory pain; intravenous, dose not given, 3 h post-dose, third injection, day 5: 0.32 g and 0.4 g and 0.23 g and 0.29 g
mouse, CFA inflammatory pain; intravenous, dose not given, 24 h post-dose, first injection, day 1: 0.23 g and 0.17 g and 0.32 g and 0.19 g

Sample 5 — method: phase 2a clinical trial
SMILES: CC(C)n1cnc(-c2ccc(F)cc2)c1-c1ncc(C(=O)Nc2ccc(N3CCN(C)CC3)cc2)[nH]1
Species: patients with idiopathic pulmonary fibrosis
Endpoint: patients with treatment-emergent adverse events
measured: gastro-oesophageal reflux disease; 30 mg once daily, Grade 5: 0%
measured: gastro-oesophageal reflux disease; 30 mg once daily, Grade 3: 0%
measured: carbon dioxide decreased; 60 mg once daily, Grade 3: 0%
measured: carbon dioxide decreased; dose not given, Grade 3, all drug arms total: 0%
measured: carbon dioxide decreased; 60 mg once daily, Grade 2: 0%
measured: C-reactive protein increased; dose not given, Grade 3, all drug arms total: 0%
measured: drug-induced liver injury; 30 mg once daily, Grade 2: 0%
measured: benign prostatic hyperplasia; 30 mg once daily, Grade 4, maximum intensity: 0%

Mixed results
CN(C)C(=O)Cn1cc(-c2nc([C@@](C)(c3ccc(-c4cnc(N)nc4)cc3)C3CC3)no2)cn1
inhibition (5-hydroxytryptamine receptor 5A (HTR5A, Homo sapiens, UniProt P47898); ligand displacement; 10 µM): -4.97%

Repeated from above (sample 4):
mouse, CFA inflammatory pain; intraplantar, 10 µg, 1 h post-dose, day 3 after CFA: 0.51 g and 0.65 g and 0.32 g and 0.75 g and 0.44 g
mechanical pain; mouse, STZ diabetic neuropathy; intravenous, 30 mg/kg, 24 h post-dose, first injection, day 8: 0.32 g and 0.1 g and 0.04 g and 0.12 g and 0.02 g
mouse, CFA inflammatory pain; subcutaneous, 10 mg/kg, 24 h post-dose, second injection, day 3: 0.29 g and 0.19 g and 0.23 g
mouse, CFA inflammatory pain; subcutaneous, 10 mg/kg, 3 h post-dose, second injection, day 3: 0.23 g and 0.36 g and 0.13 g and 0.32 g
mechanical pain; mouse, STZ diabetic neuropathy; intravenous, 30 mg/kg, 3 h post-dose, first injection, day 8: 0.4 g and 0.17 g and 0.29 g and 0.13 g and 0.06 g
mouse, CFA inflammatory pain; intravenous, dose not given, 3 h post-dose, third injection, day 5: 0.32 g and 0.4 g and 0.23 g and 0.29 g
